Published values collected from several papers.
Numbers after ± are the reported error.

COc1ccc(CNc2ccc(-c3ccn4c(CC5CC5)nnc4c3C(F)(F)F)cc2F)cn1
brain concentration (rat Sprague Dawley male, brain; subcutaneous, 10 mg/kg, 1 h): 730 ng/g

CC[C@H](C)[C@@H]1NC(=O)[C@H](CC(C)C)NC(=O)[C@H](Cc2ccccc2)NC(=O)[C@H](Cc2ccccc2)NC(=O)[C@@H]2CCCN2C(=O)[C@@H]2CCCN2C(=O)[C@H](C(C)C)NC(=O)[C@H](CC(C)C)NC(=O)[C@H]([C@@H](C)CC)NC1=O
cytotoxicity (A-375; LDH release; 500 µM, 48 h; baseline: DMSO): 56%

O=C(O)COc1ccc(Br)cc1C=NNC(=O)Cc1ccccc1 (mixture of isomers)
seizure severity (Racine scale 0-5; male mice, pilocarpine-induced seizures; oral, 20 mg/kg, 1.5 h after pilocarpine, unit not given, together with: pilocarpine 300 mg/kg i.p.; higher = more severe): 1.6 ± 0.7

FC(F)(F)c1c(-c2ccc3c(ccn3-c3cccnc3)c2)ccn2c(CC3CC3)nnc12
compound metabolized (rat liver microsomes; 5 µM, 15 min): 89%

O=C(N[C@@H](CC1CCCCC1)C(=O)N[C@@H](C[C@@H]1CCNC1=O)C(=O)C(=O)NC1CC1)OCc1cccc(Cl)c1
therapeutic index (feline coronavirus; CRFK, FIPV-1146; baseline: CC50 over EC50): > 273

CCCCn1ccn2c(-c3ccc(Oc4ccnc(C)c4)c(F)c3)c(C)nc2c1=O
brain/plasma ratio (male Sprague Dawley rat; oral, 10 mg/kg, 2 h; baseline: brain over plasma): 0.3

Cc1nc(C#N)cnc1Cl
ΔTm (Cellular tumor antigen p53, DNA-binding domain (TP53, Homo sapiens, UniProt P04637, M133L/N239Y/N268D/V203A/Y220C); differential scanning fluorimetry; 1 mM, 10 min, 20 °C): 1.43 °C

CC(C)C[C@H](NC(=O)OCc1cccc(Cl)c1)C(=O)N[C@H](C=O)C[C@@H]1CCNC1=O
CC50 (CRFK; cell growth or viability; 36 h): > 150 µM

CC[C@H](C)[C@@H]1NC(=O)[C@H](C(C)C)NC(=O)[C@H](Cc2ccccc2)NC(=O)[C@H](Cc2ccccc2)NC(=O)[C@@H]2CCCN2C(=O)[C@@H]2CCCN2C(=O)[C@H]([C@@H](C)CC)NC(=O)[C@H](CC(C)C)NC(=O)[C@H](CCSC)NC1=O
cytotoxicity (MCF7; LDH release; 200 µg/mL, 24 h): 19%

CCCCCC(=O)OCn1cc(F)c(=O)[nH]c1=O
half-life (Sprague-Dawley rat, plasma; 80 µg/mL, 37 °C): 30 ± 0.6 min

O=C[C@H](C[C@@H]1CCNC1=O)NC(=O)[C@H](CC1CCCCC1)NC(=O)OCc1cccc(Cl)c1
therapeutic index (feline coronavirus; CRFK, FIPV-1146; baseline: CC50 over EC50): 1280

O=C(O)COc1ccc(Br)cc1/C=N/NC(=O)c1ccc(Cl)cc1
seizure severity (Racine scale 0-5; male mice, pilocarpine-induced seizures; oral, 20 mg/kg, 2 h after pilocarpine, unit not given, together with: pilocarpine 300 mg/kg i.p.; higher = more severe): 1.3 ± 0.48

Repeated from above:
O=C[C@H](C[C@@H]1CCNC1=O)NC(=O)[C@H](CC1CCCCC1)NC(=O)OCc1cccc(Cl)c1
therapeutic index (feline coronavirus; CRFK, FIPV-1146; baseline: CC50 over EC50): 1280

O=C(O)COc1ccc(Br)cc1/C=N/NC(=O)c1ccc(Cl)cc1
seizure severity (Racine scale 0-5; male mice, pilocarpine-induced seizures; oral, 20 mg/kg, 2 h after pilocarpine, unit not given, together with: pilocarpine 300 mg/kg i.p.; higher = more severe): 1.3 ± 0.48
